Experimental data collected from several papers.
A part holds a random share of what one study measured.

Block 1
Cell line: HEK-293T/ACE2
Concentration: concentration not given
Time: 16 (unit not given)
Baseline: vehicle
| SMILES | viability [%] |
| --- | --- |
| C[C@@H]1C[C@H]2[C@@H]3CCC4=CC(=O)C=C[C@]4(C)[C@@]3(Cl)[C@@H](O)C[C@]2(C)[C@@]1(OC(=O)c1ccco1)C(=O)CCl | 104 |
| CC1CNc2c(cccc2S(=O)(=O)N[C@@H](CCCNC(=N)N)C(=O)N2CC[C@@H](C)C[C@@H]2C(=O)O)C1 (stereo partly drawn) | 108 |
| CCCCCCCCCCCCCCCC[N+](C)(C)CCN(Cc1ccc(OC)cc1)c1ncccn1 | 101 |
| Cc1ccnc2c1NC(=O)c1cccnc1N2C1CC1 | 102 |

Block 2
Target: Ras GTPase-activating protein-binding protein 1, full length (G3BP1, Homo sapiens, UniProt Q13283)
UniProt Q13283, sequence (whole entry, looked up): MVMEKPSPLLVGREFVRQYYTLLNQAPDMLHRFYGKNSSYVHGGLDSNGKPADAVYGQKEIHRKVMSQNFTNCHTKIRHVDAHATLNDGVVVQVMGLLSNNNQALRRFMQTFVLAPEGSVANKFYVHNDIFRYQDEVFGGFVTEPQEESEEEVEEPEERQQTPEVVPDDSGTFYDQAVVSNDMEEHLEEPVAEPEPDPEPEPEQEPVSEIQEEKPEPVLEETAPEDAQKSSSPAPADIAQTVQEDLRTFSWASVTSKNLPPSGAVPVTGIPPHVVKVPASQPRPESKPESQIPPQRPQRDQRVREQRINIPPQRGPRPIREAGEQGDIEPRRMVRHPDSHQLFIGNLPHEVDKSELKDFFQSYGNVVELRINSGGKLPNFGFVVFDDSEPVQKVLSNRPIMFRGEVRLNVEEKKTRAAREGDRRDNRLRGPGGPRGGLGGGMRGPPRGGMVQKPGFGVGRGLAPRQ
Technique: RNA Bind-n-Seq
Form: RNA
Matrix: in vitro
Concentration: 200 nM
Setting: whole 134-nt RNA, ends assumed
Together with: 150 mM LiCl
Baseline: input library
Direction: higher = stronger binding
Each molecule: 7-deaza-guanosine replaces G
Constant ends, left off below: GGGAGUUCUACAGUCCGACGAUC … UGGAAUUCUCGGGUGUCAAGG
| Sequence | log2 enrichment |
| --- | --- |
| AUGAAGAUGAAGAAGAGGAUGAUGAGGACGAGGAUGACGACGACGACGAAGAUGAUGAAGAUGAUGAUGAUGAAGAUGAUGAGGAGGAGG | -0.104 |
| UGGCCCUGGUGGCAUGCGGGGAGGAAGAGGUGGCCUCAUGGAUCGUGGUGGUCCCGGUGGAAUGUUCAGAGGUGGCCGCGGUGGAGACAG | 0.0556 |
| CUGUGCUACACAUCGUAUGUACCGAAUCGGGGUUUUUUUGGUUUUUUUGGGUUUUUUUGGGAAAGUAUUAUGUUACGCCGUUCGGAUCUG | 0.819 |
| CACAGACAACACGCACCCACACAGACACAGAGGGAAGGGGUUGGGAUGGGGACAGGGUGCACAGCAGGGCGGGAAAGGACCCCAGCCCCU | 1.18 |
| CCUGUGCUACACAUCGUAUGUACCGAAUCGGGGUUUUUGGGGUUUUUUUGGGGUUUGGGGAAAGUAUUAUGUUACGCCGUUCGGAUCUGC | 0.218 |
| AAAAGACAACACGCACCCACACAGACACAGAGGGAAGGGGUUGGGAUGGGGACAGGGUGCACAGCAGGGCGGGGUAGGACCCCAGCCCCU | 0.247 |
| GUCCUGUGCUACACAUCGUAUGUACCGAAUCAAACCCAAAUUUUUUUAAACCCCCAAAAAAGUAUUAUGUUACGCCGUUCGGAUCUGCAC | 1.37 |
| UAACUUUAGAGGAGGAUCUGAUGGAUAUGGCAGUGGACGUGGAUUUGGGGAUGGCUAUAAUGGGUAUGGAGGAGGACCUGCAGGUGGCAA | -0.139 |

Block 3
Target: Replicase polyprotein 1ab, polymerase (rep, Severe acute respiratory syndrome coronavirus 2, UniProt P0DTD1)
Effect on: enzyme activity
Action: inhibitor
Concentration: 20 µM
| SMILES | inhibition [%] |
| --- | --- |
| Cc1cccc(/C=C/c2ccccc2)n1 | -3.91 |
| CC(C)(C)NCC(O)c1cc(Cl)c(N)c(C(F)(F)F)c1 (stereo not drawn) | 1.92 |
| C=CC(=O)c1ccc2ccccc2c1 | -2.29 |
| O=C1NC(=O)/C(=C/c2ccc3nccc(-c4ccncc4)c3c2)S1 | 4.94 |
| CC1=C(/C=C/C(C)=C/C=C/C(C)=C/C=O)C(C)(C)CCC1 | 3.54 |
| C[C@](N)(Cc1ccc(O)c(O)c1)C(=O)O | 22.6 |
| CC(=O)N[C@H]1[C@H]([C@H](O)[C@H](O)CO)OC(O)(C(=O)O)C[C@@H]1O (stereo partly drawn) | -0.14 |
| CCC(=O)NS(=O)(=O)c1ccc(-c2c(-c3ccccc3)noc2C)cc1 | 3.7 |
| CNCCCN1c2ccccc2CCc2ccccc21 | 15.4 |
| CC(C)(C)C(=O)NCCCC(=O)O | 5.82 |
| CC(=O)OCC1=C(C(=O)O)N2C(=O)[C@@H](NC(=O)Cc3cccs3)[C@H]2SC1 | 22.6 |
| CN(C)/N=N/c1[nH]cnc1C(N)=O | -0.35 |
| C=C1C[C@]23C[C@@]1(O)CC[C@H]2[C@@]12C=C[C@H](O)[C@@](C)(C(=O)O1)[C@H]2[C@@H]3C(=O)O | -2.74 |
| Cc1ccc(-c2c(-c3nn(C)c4ncnc(N5CC[C@H](N6CCCCC6)C5)c34)cnn2C)cc1 | 14.6 |
| CCOCc1cc(OC)c(-c2ccc(C[C@H](NC(=O)c3c(F)cccc3F)C(=O)O)cc2)c(OC)c1 | -0.27 |
| CNC(=O)c1ccc(C)c(-n2c(C)cc(OCc3ccc(F)cc3F)c(Br)c2=O)c1 | -0.01 |
| C=CC(=O)N1CCC[C@@H](n2nc(-c3ccc(Oc4ccccc4)cc3)c3c(N)ncnc32)C1 | -2.01 |
| C=C[C@]1(C)CC[C@@H](C(=C)C)C[C@H]1C(=C)C | -2.11 |
| O=C(NNc1ccccc1)c1ccncc1 | -3.84 |
| O=C(NC[C@H](O)CN1CCc2ccccc2C1)c1cc(NC2COC2)ncn1 | -5.33 |
| CCC(C(=O)O)c1ccc(CC(C)C)cc1 (stereo not drawn) | -0.56 |
| Cc1nc(NC(=O)N2CCC[C@H]2C(N)=O)sc1-c1ccnc(C(C)(C)C(F)(F)F)c1 | 1.02 |
| CCCNC(=O)Nc1ccc(Oc2ncnc3cc(OC)c(OC)cc23)cc1Cl | -3.33 |
| CCCCOc1ccc(C(=O)CCN2CCCCC2)cc1 | -13.5 |
| COc1cc2c(NC3CCN(C)CC3)nc(N3CCCN(C)CC3)nc2cc1OCCCN(C)C | 102 |

Block 4
Target: Max dimerization protein 1, bHLH-zipper, MAX partner unstated (MXD1, Homo sapiens, UniProt Q05195, residues 56-136)
Technique: protein-binding microarray
Form: double-stranded DNA, one strand shown
Matrix: in vitro
Concentration: not given
Setting: k-mer, scored over probes, only values ≥0.25
Direction: higher = stronger binding
Construct (chain): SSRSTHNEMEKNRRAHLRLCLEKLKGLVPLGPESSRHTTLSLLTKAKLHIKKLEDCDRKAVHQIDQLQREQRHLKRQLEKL
| Sequence | E-score |
| --- | --- |
| ATGAGGGC | 0.339 |
| CACGTGAC | 0.477 |
| GGGTGACA | 0.27 |
| ATAGCATG | 0.339 |
| CGTGTACC | 0.343 |
| CACGCGCA | 0.401 |
| ATGTGGCG | 0.259 |
| CATGCACC | 0.36 |

Block 5
Target: Replicase polyprotein 1ab, main protease (rep, Severe acute respiratory syndrome coronavirus 2, UniProt P0DTD1)
Effect on: enzyme activity
Action: inhibitor
Concentration: 20 µM
Setting: hit confirmation
| Structure (SMILES) | inhibition |
| --- | --- |
| CN(CCCN1c2ccccc2CCc2ccccc21)CC(=O)c1ccc(Cl)cc1 | 68.1% |
| Cc1ccsc1C(=CCCN1CCC[C@@H](C(=O)O)C1)c1sccc1C | -7.7% |
| N=C(N)S/C=C\C(=O)O | 8.6% |
| CCCCCCCCCCCCCCSCC(=O)O | -16.3% |
| Sc1nnc(-c2ccccc2Cl)o1 | 68.3% |
| CC[C@]1(O)C[C@@H]2C[N@@](CCc3c([nH]c4ccccc34)[C@@](C(=O)OC)(c3cc4c(cc3OC)N(C)[C@H]3[C@@](O)(C(=O)OC)[C@H](OC(C)=O)[C@]5(CC)C=CCN6CC[C@]43[C@@H]65)C2)C1 | 22.1% |
